Experimental data pooled from the literature.
CDC7 with DBF4: Cell division cycle 7-related protein kinase, with DBF4 (CDC7, Homo sapiens, UniProt O00311)
Sequence of UniProt O00311 (whole entry, looked up): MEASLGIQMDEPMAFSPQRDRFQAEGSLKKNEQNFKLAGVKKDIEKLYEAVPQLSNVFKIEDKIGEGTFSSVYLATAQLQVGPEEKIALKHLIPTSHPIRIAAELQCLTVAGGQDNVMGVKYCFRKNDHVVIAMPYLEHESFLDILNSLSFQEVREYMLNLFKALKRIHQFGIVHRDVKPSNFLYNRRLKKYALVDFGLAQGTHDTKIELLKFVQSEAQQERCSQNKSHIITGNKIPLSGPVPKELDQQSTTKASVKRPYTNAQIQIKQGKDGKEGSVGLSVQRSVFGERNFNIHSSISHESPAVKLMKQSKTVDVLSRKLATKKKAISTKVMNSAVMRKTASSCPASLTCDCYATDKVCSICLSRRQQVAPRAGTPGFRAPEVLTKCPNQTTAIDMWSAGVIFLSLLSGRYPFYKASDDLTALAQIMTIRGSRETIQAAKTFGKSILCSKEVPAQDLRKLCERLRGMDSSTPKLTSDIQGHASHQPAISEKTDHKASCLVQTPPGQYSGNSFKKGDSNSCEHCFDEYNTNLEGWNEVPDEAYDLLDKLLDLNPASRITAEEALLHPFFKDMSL
CDC7 with cyclin B1: Cell division cycle 7-related protein kinase, with cyclin B1 (CDC7, Homo sapiens, UniProt O00311)

For `CC/C(=N\NC(=O)NCc1cccc(O)c1)c1ccc(O)c(C)c1O`, the inhibition was -0.4% (CDC7 with DBF4; kinase activity; 0.1 µM).
The remaining activity of `CC(C)(O)[C@H]1CC[C@H](Nc2ccc3ncc(-c4cccc(C(F)(F)F)c4)n3n2)CC1` is reported as 104% (CDC7 with DBF4; enzyme activity, inhibitor; 1 µM, with: 10 µM ATP; relative to: DMSO).
`COc1ccc2oc(-c3ccc4nc(N)oc4c3)c/c(=N\c3ccccc3NC(=O)CCN)c2c1` has a remaining activity of 97% (CDC7 with cyclin B1; kinase activity; 1 µM; relative to: untreated control).
With `CN1CC(Oc2cnc(C#N)cc2-c2ccn3nc(NC(=O)C4CC4)cc3c2)C1` the inhibition was 6% (CDC7 with cyclin B1; inhibitor, KinaseProfiler panel; 1 µM).
`Cc1ccc(C(=O)NCc2ccsc2)cc1C#Cc1cn(C(C)C)c2ncnc(N)c12` gave a remaining activity of 88% (CDC7 with cyclin B1; kinase activity; 1 µM, with: ATP at Km).
`COc1cc(-c2cncc3c2CN(C)Cc2cc(N4CCNCC4)ccc2-3)cc(OC)c1OC` gave a remaining activity of 117% (CDC7 with cyclin B1; enzyme activity; 1 µM, with: 10 µM ATP; relative to: DMSO).
`CC(C)(C)c1nc2c(s1)c1nc(N)ncc1c1ccc(NS(=O)(=O)c3c(F)cccc3F)c(F)c12` has a remaining activity of 95% (CDC7 with DBF4; kinase activity, radiometric 33PanQinase; 1 µM; relative to: DMSO).
The remaining activity of `CNc1ncc2c(/C=C/C(=O)N3CCC(OC)CC3)nn(Cc3cccc(C(F)(F)F)c3)c2n1` is reported as 103% (CDC7 with DBF4; inhibitor; 1 µM; relative to: control).

Some of these lines once more:
`CC(C)(C)c1nc2c(s1)c1nc(N)ncc1c1ccc(NS(=O)(=O)c3c(F)cccc3F)c(F)c12` has a remaining activity of 95% (CDC7 with DBF4; kinase activity, radiometric 33PanQinase; 1 µM; relative to: DMSO).
